Literature values as cited in several papers.
Compare with care: the assays were run in different laboratories.
HLA class I histocompatibility antigen, B alpha chain allele B*18:01: HLA class I histocompatibility antigen, B alpha chain, allele B*18:01 (Homo sapiens, UniProt P01889)

Substance | target or system | test | system | setting | scale | quantity | result
FESVAWSA | HLA class I histocompatibility antigen, B alpha chain allele B*18:01 | peptide-MHC binding | peptide | – | – | IC50 | 5.69 nM
CCOC(=O)C1=C(CN2CCOCC2)NC(c2nccs2)=NC1c1ccc(F)cc1Br (centres unmarked) | – | – | – | – | – | half-life | 1.78 h
IPCRDVVL | HLA class I histocompatibility antigen, B alpha chain, allele B*51:01 (Homo sapiens, UniProt P01889) | peptide-MHC binding | peptide | – | – | IC50 | 67.7 nM
CC(C)[C@H](NC(=O)[C@H](CCCNC(=N)N)NC(=O)N[C@@H](Cc1ccccc1)C(=O)O)C(=O)N[C@H](C=O)CCCNC(=N)N | CTSA | – | – | – | – | IC50 | 2000 nM
FSLPAQLL | HLA class I histocompatibility antigen, B alpha chain, allele B*46:01 (Homo sapiens, UniProt P01889) | peptide-MHC binding | peptide | – | – | IC50 | 1310 nM
Cc1ncc2n1-c1ccc(Cl)cc1C(c1ccccc1F)=NC2 | – | – | human | added: ketoconazole | reference: with over without ketoconazole | Cmax ratio | 4.09
FEFTSFFY | HLA class I histocompatibility antigen, B alpha chain allele B*18:01 | peptide-MHC binding | peptide | – | – | IC50 | < 1 nM
C[C@@H](N)C1CCN(S(=O)(=O)c2cccc3cnccc23)CC1 | – | – | monkey | – | – | NOAEL | 40 mg/kg/day

A few entries again:
Substance | target or system | test | system | setting | scale | quantity | result
CC(C)[C@H](NC(=O)[C@H](CCCNC(=N)N)NC(=O)N[C@@H](Cc1ccccc1)C(=O)O)C(=O)N[C@H](C=O)CCCNC(=N)N | CTSA | – | – | – | – | IC50 | 2000 nM
